# Measurements of several laboratories.
# Each line is one published result; not all experiments were run side by side. Several values in a cell are separate wells, animals, samples, runs or records. Numbers after ± are the reported error.
# Toll-like receptor 3: Toll-like receptor 3 (Homo sapiens, UniProt O15455)
# Chain of UniProt O15455 (whole entry, looked up): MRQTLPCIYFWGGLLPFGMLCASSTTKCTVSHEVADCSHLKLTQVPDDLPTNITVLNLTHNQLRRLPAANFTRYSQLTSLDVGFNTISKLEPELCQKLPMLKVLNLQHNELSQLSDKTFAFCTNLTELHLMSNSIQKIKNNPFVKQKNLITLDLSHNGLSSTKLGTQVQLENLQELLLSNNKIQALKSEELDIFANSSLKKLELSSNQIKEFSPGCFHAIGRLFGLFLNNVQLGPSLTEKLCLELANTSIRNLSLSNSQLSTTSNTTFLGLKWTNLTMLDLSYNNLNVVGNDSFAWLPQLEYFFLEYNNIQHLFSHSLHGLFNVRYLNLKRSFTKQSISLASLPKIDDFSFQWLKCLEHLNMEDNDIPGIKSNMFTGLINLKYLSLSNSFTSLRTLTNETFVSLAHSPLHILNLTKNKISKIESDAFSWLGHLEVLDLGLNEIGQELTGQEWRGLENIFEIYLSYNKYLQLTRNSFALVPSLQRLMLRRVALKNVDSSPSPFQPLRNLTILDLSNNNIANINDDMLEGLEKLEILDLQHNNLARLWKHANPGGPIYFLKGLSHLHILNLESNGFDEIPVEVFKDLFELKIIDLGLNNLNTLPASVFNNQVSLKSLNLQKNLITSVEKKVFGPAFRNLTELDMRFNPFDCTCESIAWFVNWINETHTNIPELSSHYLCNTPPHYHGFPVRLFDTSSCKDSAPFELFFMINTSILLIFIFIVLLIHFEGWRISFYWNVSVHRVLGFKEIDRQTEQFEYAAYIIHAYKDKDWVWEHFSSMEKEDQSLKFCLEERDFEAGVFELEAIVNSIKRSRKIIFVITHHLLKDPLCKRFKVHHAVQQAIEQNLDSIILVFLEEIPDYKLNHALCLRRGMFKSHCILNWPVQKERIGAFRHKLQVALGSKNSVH
# PSMB6: Proteasome subunit beta type-6 (PSMB6, Homo sapiens, UniProt P28072)
# Chain of UniProt P28072 (whole entry, looked up): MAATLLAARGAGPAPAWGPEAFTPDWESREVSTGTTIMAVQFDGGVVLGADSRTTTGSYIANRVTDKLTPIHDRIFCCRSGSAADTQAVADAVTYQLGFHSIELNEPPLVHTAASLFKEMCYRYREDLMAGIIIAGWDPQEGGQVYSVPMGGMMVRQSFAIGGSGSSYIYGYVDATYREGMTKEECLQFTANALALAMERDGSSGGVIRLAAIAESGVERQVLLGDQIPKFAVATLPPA
# ABCG2: Broad substrate specificity ATP-binding cassette transporter ABCG2 (ABCG2, Homo sapiens, UniProt Q9UNQ0)
# Chain of UniProt Q9UNQ0 (whole entry, looked up): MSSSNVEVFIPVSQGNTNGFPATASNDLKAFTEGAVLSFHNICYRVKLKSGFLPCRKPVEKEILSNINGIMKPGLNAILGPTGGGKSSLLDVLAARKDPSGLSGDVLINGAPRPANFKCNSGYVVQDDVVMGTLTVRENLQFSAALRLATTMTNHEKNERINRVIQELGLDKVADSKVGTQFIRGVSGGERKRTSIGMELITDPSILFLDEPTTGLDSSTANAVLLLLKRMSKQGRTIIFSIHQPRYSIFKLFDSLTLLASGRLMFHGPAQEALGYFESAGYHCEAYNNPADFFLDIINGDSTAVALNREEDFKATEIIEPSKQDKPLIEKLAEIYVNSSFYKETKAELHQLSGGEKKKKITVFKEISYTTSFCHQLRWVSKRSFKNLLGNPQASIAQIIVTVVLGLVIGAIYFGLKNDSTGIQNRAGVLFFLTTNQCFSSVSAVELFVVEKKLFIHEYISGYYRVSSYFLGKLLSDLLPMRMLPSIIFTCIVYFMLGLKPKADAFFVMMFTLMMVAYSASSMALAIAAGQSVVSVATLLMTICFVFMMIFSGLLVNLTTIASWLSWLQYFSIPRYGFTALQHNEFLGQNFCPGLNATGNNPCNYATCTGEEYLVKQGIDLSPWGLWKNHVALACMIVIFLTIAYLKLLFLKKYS
# KCNH2: Voltage-gated inwardly rectifying potassium channel KCNH2 (KCNH2, Homo sapiens, UniProt Q12809)
# Chain of UniProt Q12809 (whole entry, looked up): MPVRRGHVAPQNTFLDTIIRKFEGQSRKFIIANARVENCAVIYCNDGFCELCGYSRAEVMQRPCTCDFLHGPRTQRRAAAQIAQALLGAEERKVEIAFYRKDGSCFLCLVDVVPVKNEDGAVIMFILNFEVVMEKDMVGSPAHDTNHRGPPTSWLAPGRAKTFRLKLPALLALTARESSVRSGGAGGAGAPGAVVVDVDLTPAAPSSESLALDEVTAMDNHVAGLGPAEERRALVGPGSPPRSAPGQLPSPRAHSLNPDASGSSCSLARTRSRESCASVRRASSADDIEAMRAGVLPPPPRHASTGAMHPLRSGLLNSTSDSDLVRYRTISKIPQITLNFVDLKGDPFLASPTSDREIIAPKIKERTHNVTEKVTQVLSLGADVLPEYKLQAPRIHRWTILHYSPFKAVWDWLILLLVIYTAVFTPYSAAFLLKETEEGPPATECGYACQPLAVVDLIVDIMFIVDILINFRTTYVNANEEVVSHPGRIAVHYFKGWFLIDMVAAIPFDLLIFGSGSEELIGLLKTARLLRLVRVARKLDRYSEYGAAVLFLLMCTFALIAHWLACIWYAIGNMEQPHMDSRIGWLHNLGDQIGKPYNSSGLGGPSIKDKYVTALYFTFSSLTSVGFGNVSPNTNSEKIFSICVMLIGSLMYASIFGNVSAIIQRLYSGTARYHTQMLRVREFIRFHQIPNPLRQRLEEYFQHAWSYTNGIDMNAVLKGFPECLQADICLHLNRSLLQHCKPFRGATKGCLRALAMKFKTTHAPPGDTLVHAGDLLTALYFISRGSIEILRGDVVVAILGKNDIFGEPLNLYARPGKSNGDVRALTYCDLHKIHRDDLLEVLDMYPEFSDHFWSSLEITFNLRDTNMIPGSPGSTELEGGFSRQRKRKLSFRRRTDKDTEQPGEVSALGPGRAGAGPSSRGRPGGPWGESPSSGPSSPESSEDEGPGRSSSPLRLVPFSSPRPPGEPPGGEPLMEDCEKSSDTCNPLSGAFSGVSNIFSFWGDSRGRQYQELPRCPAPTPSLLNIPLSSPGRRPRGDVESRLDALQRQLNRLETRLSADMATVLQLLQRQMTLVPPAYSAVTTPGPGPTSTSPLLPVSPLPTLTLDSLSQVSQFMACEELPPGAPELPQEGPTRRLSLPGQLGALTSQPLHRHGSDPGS
# PLA2G5: Phospholipase A2 group V (PLA2G5, Homo sapiens, UniProt P39877)
# Chain of UniProt P39877 (whole entry, looked up): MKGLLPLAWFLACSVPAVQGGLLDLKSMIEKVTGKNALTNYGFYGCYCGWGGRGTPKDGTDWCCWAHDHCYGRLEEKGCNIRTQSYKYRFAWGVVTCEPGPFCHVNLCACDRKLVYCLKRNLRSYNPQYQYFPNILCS
# CA1: Carbonic anhydrase 1 (CA1, Homo sapiens, UniProt P00915)
# Chain of UniProt P00915 (whole entry, looked up): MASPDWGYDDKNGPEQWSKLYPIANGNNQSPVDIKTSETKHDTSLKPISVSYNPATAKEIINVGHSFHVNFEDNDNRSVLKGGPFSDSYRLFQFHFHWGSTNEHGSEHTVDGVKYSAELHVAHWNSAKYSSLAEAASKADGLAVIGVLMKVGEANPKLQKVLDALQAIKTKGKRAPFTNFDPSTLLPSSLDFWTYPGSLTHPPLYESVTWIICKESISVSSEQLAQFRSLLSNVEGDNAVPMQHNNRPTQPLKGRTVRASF
# Chain of UniProt Q70CQ1 (whole entry, looked up): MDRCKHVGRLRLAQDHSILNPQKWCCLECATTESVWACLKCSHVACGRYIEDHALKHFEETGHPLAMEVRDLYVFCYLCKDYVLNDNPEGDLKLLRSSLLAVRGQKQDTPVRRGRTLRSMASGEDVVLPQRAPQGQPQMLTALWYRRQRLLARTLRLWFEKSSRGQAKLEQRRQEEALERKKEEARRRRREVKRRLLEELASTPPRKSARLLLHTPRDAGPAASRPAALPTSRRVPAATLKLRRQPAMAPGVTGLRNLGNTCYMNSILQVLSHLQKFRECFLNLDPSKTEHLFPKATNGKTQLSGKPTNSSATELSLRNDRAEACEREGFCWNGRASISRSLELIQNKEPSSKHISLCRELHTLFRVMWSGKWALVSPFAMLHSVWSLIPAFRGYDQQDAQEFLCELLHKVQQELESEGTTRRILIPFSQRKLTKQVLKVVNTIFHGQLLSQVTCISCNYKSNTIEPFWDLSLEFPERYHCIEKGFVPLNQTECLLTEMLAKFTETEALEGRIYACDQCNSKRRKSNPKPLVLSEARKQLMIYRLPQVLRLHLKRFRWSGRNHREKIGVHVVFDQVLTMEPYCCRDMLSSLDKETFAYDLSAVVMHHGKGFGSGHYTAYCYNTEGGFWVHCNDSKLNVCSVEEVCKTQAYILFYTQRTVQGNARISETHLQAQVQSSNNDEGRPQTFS
# Chain of UniProt Q8NEC5 (whole entry, looked up): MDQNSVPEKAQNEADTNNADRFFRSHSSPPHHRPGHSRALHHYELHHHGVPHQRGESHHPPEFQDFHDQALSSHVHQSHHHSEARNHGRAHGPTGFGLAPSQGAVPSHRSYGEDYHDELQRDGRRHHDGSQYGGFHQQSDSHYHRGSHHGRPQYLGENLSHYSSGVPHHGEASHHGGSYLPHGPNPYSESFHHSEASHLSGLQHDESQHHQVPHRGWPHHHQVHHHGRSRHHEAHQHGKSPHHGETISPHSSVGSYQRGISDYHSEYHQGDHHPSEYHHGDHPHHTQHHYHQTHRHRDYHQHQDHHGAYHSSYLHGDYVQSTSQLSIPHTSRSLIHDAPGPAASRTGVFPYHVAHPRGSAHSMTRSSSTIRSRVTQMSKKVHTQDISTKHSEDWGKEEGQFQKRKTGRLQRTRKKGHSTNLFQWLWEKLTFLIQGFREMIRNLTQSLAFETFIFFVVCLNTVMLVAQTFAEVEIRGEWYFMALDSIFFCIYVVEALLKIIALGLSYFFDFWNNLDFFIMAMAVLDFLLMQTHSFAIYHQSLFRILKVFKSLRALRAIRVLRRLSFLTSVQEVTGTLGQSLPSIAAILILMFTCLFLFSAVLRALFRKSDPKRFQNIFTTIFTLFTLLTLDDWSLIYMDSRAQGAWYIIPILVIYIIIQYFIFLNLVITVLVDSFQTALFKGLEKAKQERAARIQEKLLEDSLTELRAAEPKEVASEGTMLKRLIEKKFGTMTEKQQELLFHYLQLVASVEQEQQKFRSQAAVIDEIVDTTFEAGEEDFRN
Compound,target,test,system,setting,quantity,value
COc1ccc2[nH]c3c(C)cc(-c4nc5ccccc5[nH]4)c(C)c3c2c1,Toll-like receptor 3,"reporter gene, inhibitor",HEK-Blue hTLR3,together with: poly(I:C),IC50,6.78 ± 1.55 µM
Cn1ncc2c(Cl)c(C(=O)NCc3ccccc3)cnc21,"Malate dehydrogenase, mitochondrial (MDH2, Sus scrofa, UniProt P00346)","enzyme activity, reporter counter-screen",,native enzyme,IC50,> 63 µM
COc1cc2c(cc1OC)C1CC(=O)C(CC(C)C)CN1CC2 (centres unmarked),"Synaptic vesicular amine transporter (SLC18A2, Homo sapiens, UniProt Q05940, L37F)","FFN206 uptake, inhibitor, fluorescence imaging",,"L37F mutant, together with: FFN206 5 µM",IC50,0.0824 µM
Cc1ccc(NC(=O)c2ccc(C)c(C(F)(F)F)c2)cc1C#Cc1nn(C2CCC(O)CC2)c2ncnc(N)c12 (centres unmarked),"Mast/stem cell growth factor receptor Kit (KIT, Homo sapiens, UniProt P10721)","inhibitor, radiometric kinase",,together with: ATP 10 µM,IC50,3.16 µM
Cc1nc(F)ccc1-c1cc(Cn2ccn(C)c2=N)cc(C(=O)NCc2ccc(Cl)c(Cl)c2)c1,"WD repeat-containing protein 5, MLL2 complex (WDR5, Homo sapiens, UniProt P61964)","MLL2 methyltransferase activity, inhibitor",,together with: H3 peptide substrate,IC50,9.7 µM
COc1ccc(C[C@H](NC(=O)[C@H](C)NC(=O)CN2CCOCC2)C(=O)N[C@@H](CC2CC3CCC2C3)C(=O)[C@@]2(C)CO2)cc1 (mixture of isomers),PSMB6,competitive ABPP,Raji cell lysate,,IC50,> 10 µM
CN1CCN(c2ccc(Nc3ncc4cc(C#N)c(=O)n(C5CCCC5)c4n3)cc2)CC1,"Interleukin-1 receptor-associated kinase 1 (IRAK1, Homo sapiens, UniProt P51617)",,,,IC50,1.79 µM
Cc1nn2c(-c3c(C)nn(C)c3-c3ccc(C(F)(F)F)cc3)nc(CO)c2c(=O)[nH]1,"cAMP and cAMP-inhibited cGMP 3',5'-cyclic phosphodiesterase 10A (PDE10A, Homo sapiens, UniProt Q9Y233)","enzyme activity, inhibitor, scintillation proximity",,,IC50,20.4 µM
CC(C)C[C@H](NC(=O)[C@H](CC(C)C)NC(=O)[C@H](Cc1ccccc1)NC(=O)CN=[N+]=[N-])C(=O)N[C@H](/C=C/S(C)(=O)=O)Cc1ccc(CN)cc1,PSMB6,competitive ABPP,Raji cell lysate,,IC50,> 10 µM
OC[C@@H]1[C@@H](O)[C@H](O)[C@@H](O)[C@@H]2O[C@H]12,"Oligosaccharide 4-alpha-D-glucosyltransferase (agd31B, Cellvibrio japonicus, UniProt B3PEE6)","enzyme activity, inhibitor",,"30 min preincubation, pH 6.5, 25 °C",IC50,> 100 µM
CC(C)C[C@H](NC(=O)c1ccc(-c2ccccc2)nc1)C(=O)N[C@@H](CC(C)C)C(=O)N[C@H](/C=C/S(C)(=O)=O)Cc1ccc(CN)cc1,PSMB6,competitive ABPP,Raji cell lysate,,IC50,> 10 µM
COc1ccc(C=C2SC(=O)N(C(C)C(=O)O)C2=O)cc1 (centres unmarked),"Ubiquitin carboxyl-terminal hydrolase 20, ZnF-UBD domain (USP20, Homo sapiens, UniProt Q9Y2K6)",,,,Kd,457 µM
Cc1ccc(S(=O)(=O)n2cc(/C=N/NC(=S)NC3CCCCC3)c3ccccc32)cc1,mushroom tyrosinase,"enzyme activity, inhibitor",,together with: L-DOPA substrate,IC50,61.8 ± 1.47 µM
Cc1ncc(C(=O)N[C@@H](CC(C)C)C(=O)N[C@@H](CC2CCC(C3CCCCC3)CC2)C(=O)N[C@H](/C=C/S(C)(=O)=O)Cc2ccc(CN)cc2)s1 (some centres unmarked),PSMB6,competitive ABPP,Raji cell lysate,,IC50,> 10 µM
Cc1cc2c(F)c(Oc3ncnn4cc(OC[C@@H](C)O)c(C)c34)ccc2[nH]1,ABCG2,inhibitor,,30 min,IC50,6.98 µM
COc1ccc2c3c([nH]c2c1)[C@H](CC(C)C)N1C(=O)[C@H](CC(=O)NC2CCCCC2)NC(=O)[C@@H]1C3,ABCG2,"inhibitor, refers to: protoporphyrin IX",A549,"2 h, together with: 1 mM ALA",IC50,0.215 µM and 0.0896 µM and 0.0854 µM
C#CCC(N)C(=O)O (racemic),"cystathionine gamma-lyase (Toxoplasma gondii, UniProt A0A125YN40)","cysteine formation, inhibitor, HPLC",,,IC50,20 ± 4 µM
CN1CCN(c2cnc3c(cc(C(=O)NCc4ccc(Cl)cc4)c(=O)n3CC(=O)N3CC(C)(F)C3)n2)C1=O,KCNH2,"ion current, automated patch clamp",,,IC50,33.2 µM
Cc1cnc(-c2ccc(-c3ccc(NC(=O)Nc4c(F)cc(F)cc4F)cc3F)c3c2C(=O)NC3)[nH]1,"Vascular endothelial growth factor receptor 1 (FLT1, Homo sapiens, UniProt P17948)","enzyme activity, inhibitor, mobility shift",,together with: ATP 1 mM,IC50,0.208 µM
O=c1ccn([C@@H]2O[C@H](COP(=O)(O)OP(=O)(O)OP(=O)(O)O)[C@@H](O)[C@H]2O)c(=O)[nH]1,"dGTP triphosphohydrolase (Leeuwenhoekiella blandensis, UniProt A3XHN1)","dGTPase activity, inhibitor, enzyme-coupled",,together with: 1 mM dGTP,IC50,~3800 µM
CC(=O)SCCNC(=O)CCNC(=O)[C@H](O)C(C)(C)COP(=O)(O)OP(=O)(O)OC[C@H]1O[C@@H](n2cnc3c(N)ncnc32)[C@H](O)[C@@H]1OP(=O)(O)O,"uncharacterized protein (Aspergillus fumigatus, UniProt B0XYS0)","enzyme activity, Kinase-Glo",,,IC50,> 100 µM
O=C(Nc1ccc(-c2nc3ccccc3[nH]2)cc1)c1cccc(Cl)c1,"Tyrosine-protein kinase SYK, with FCER1G (SYK, Homo sapiens, UniProt P43405)","inhibitor, TR-FRET",,counter screen,IC50,> 100 µM
CC[C@@H]1[C@H](F)C(=O)N[C@@H]1COc1nccc2cc(C(N)=O)c(OC)cc12,"Mitogen-activated protein kinase kinase kinase kinase 5 (MAP4K5, Homo sapiens, UniProt Q9Y4K4)","ATP probe binding, KiNativ profiling, refers to: KHS1 Lys1 probe site",THP-1 cell lysate,,IC50,> 5 µM
Cc1c2ccncc2c(C)c2c1[nH]c1ccc(O)cc12,Toll-like receptor 3,"reporter gene, inhibitor",HEK-Blue hTLR3,together with: poly(I:C),IC50,0.9 ± 0.11 µM
Cc1ccc(S(=O)(=O)n2cc(/C=N/NC(=S)Nc3ccccc3C)c3ccccc32)cc1,mushroom tyrosinase,"enzyme activity, inhibitor",,together with: L-DOPA substrate,IC50,24.3 ± 0.51 µM
COc1cc(/C=N/n2c(C)nc3ccc(Br)cc3c2=O)ccc1OCc1ccc(Cl)cc1,PLA2G5,"enzyme activity, inhibitor, colorimetric",,,IC50,49.7 ± 0.71 µM
O=C(Nc1cccc2c(=O)cc(-c3nnn[nH]3)oc12)c1ccc(OCCCCc2ccccc2)cc1,"LRRC8A/LRRC8C (Homo sapiens, UniProt Q8IWT6+Q8TDW0, Y124F/Y126F)","ion current, inhibitor, whole-cell patch clamp",HCT116 LRRC8-/- transfected,at +100 mV,IC50,28.6 µM
Cc1ccc(S(=O)(=O)n2cc(/C=N/NC(=S)Nc3ccccc3F)c3ccccc32)cc1,mushroom tyrosinase,"enzyme activity, inhibitor",,together with: L-DOPA substrate,IC50,10.5 ± 0.19 µM
O=C(O)CCc1cnn(-c2ccccc2)c1,"Ubiquitin carboxyl-terminal hydrolase 49, ZnF-UBD domain (USP49, Homo sapiens, UniProt Q70CQ1)",,,,Kd,661 µM
CC(C)(C)NC(=O)C[C@H](NC(=O)C(=O)c1c[nH]c2ccccc12)C(=O)NCc1cccc(B(O)O)c1,PSMB6,inhibitor,,,IC50,> 33.3 µM
N=C(N)NC(=O)c1nc(Cl)c(N2CCCCCC2)nc1N,"CatSper channel complex (Homo sapiens, UniProt Q7RTX7+Q86XQ3+Q8NEC5+Q96P56)","calcium influx, inhibitor, FLIPR",human sperm,"together with: high pH, high potassium",IC50,9.6 µM
COc1cnc2c(cc(C(=O)NCc3ccc(Cl)cc3)c(=O)n2CC(=O)N2CC(C)(F)C2)n1,KCNH2,"potassium current, inhibitor, automated patch clamp",CHO cells expressing hERG,,IC50,2.9 µM
COc1ccc(C[C@H](NC(=O)[C@H](C)NC(=O)CN2CCOCC2)C(=O)N[C@@H](CC2CCC(C)CC2)C(=O)[C@@]2(C)CO2)cc1 (some centres unmarked),PSMB6,competitive ABPP,Raji cell lysate,,IC50,> 10 µM
c1cc2c3c(cccc3c1)CC2,"Cytochrome P450 2A6 (CYP2A6, Homo sapiens, UniProt P11509)","enzyme activity, inhibitor",,"20 min, pH 7.4",IC50,29 µM
C[C@H](O)C(=O)C1=Nc2c(nc(N)[nH]c2=O)NC1,ABCG2,inhibitor,,estimated,IC50,648 µM
Cc1ccc(S(=O)(=O)n2cc(/C=N/NC(=S)NCc3ccccc3)c3ccccc32)cc1,mushroom tyrosinase,"enzyme activity, inhibitor",,together with: L-DOPA substrate,IC50,37.6 ± 0.85 µM
Cc1nc2ccc(Cl)cc2c(=O)n1NC(=O)CCl,PLA2G5,"enzyme activity, inhibitor, colorimetric",,,IC50,112 ± 1.49 µM
CCn1c(-c2nc3cc(C(=O)N4CCC[C@@H](N)C4)cc(OC)c3n2C)cc2cccnc21,"Acetylcholine receptor subunit alpha (CHRNA1, Homo sapiens, UniProt P02708)","intracellular calcium, antagonist, fluorescence",,,IC50,2 µM
CC1=CC(C)=[N+]2C1=Cc1ccc(CCCCCCCCCCCCCCCC(=O)O)n1[B-]2(F)F,"Interferon-induced, double-stranded RNA-activated protein kinase (EIF2AK2, Homo sapiens, UniProt P19525, R307A)","autophosphorylation, inhibitor, Western blot",,purified mutant PKR,IC50,80.3 ± 5.63 µM
O=c1nc(SCc2cc(F)cc(C(F)(F)F)c2)nc(SCc2ccc3sccc3c2)[nH]1,"DNA topoisomerase 2-alpha (TOP2A, Homo sapiens, UniProt P11388)","ATPase activity, inhibitor, competitive ATPase",,together with: 0.5 mM ATP,IC50,9.4 µM
COc1ccc2c(=O)[nH]c3c(nnn3Cc3ccc(C)cc3)c2c1,"Protein mono-ADP-ribosyltransferase PARP15 (PARP15, Homo sapiens, UniProt Q460N3)",,,,IC50,1.51 µM
CC(C)CNC(=S)N/N=C/c1ccc(N2CCC(O)CC2)cc1,CA1,"enzyme activity, inhibitor",,,IC50,0.769 µM
C=CC(=O)Nc1cccc(Oc2nc(Nc3ccc(N4CCN(C)CC4)cc3)nc3ccoc23)c1,"Tyrosine-protein kinase SYK (SYK, Homo sapiens, UniProt P43405)",,,,IC50,0.103 µM
COc1ccc(C[C@H](NC(=O)[C@H](C)NC(=O)CN2CCOCC2)C(=O)N[C@H](C(=O)[C@@]2(C)CO2)C2CCCCC2)cc1,PSMB6,competitive ABPP,Raji cell lysate,,IC50,> 10 µM
O=C(NCc1cc(Cl)cc(Cl)c1)c1cccc(Cn2ccnc2)c1,"WD repeat-containing protein 5, MLL1 complex (WDR5, Homo sapiens, UniProt P61964)","MLL1 methyltransferase activity, inhibitor",,together with: H3 peptide substrate,IC50,> 3 µM
FC(F)(F)Oc1ccc(Oc2ccnc(N3CCC(NC(=S)Nc4cccnc4)CC3)c2Cl)c(Cl)c1,"Lysophosphatidylserine lipase ABHD12 (Abhd12, Mus musculus, UniProt Q99LR1)","lyso-PS hydrolysis, inhibitor",transfected HEK293T membrane lysate,,IC50,0.027 µM
OC1CCN(c2ccc(/C=N/NC(=S)Nc3ccc(Br)cc3)cc2)CC1,CA1,"enzyme activity, inhibitor",,,IC50,0.478 µM

# For quick reference, copied from above:
Compound,target,test,system,setting,quantity,value
Cc1ccc(S(=O)(=O)n2cc(/C=N/NC(=S)Nc3ccccc3C)c3ccccc32)cc1,mushroom tyrosinase,"enzyme activity, inhibitor",,together with: L-DOPA substrate,IC50,24.3 ± 0.51 µM
OC1CCN(c2ccc(/C=N/NC(=S)Nc3ccc(Br)cc3)cc2)CC1,CA1,"enzyme activity, inhibitor",,,IC50,0.478 µM
Cc1ncc(C(=O)N[C@@H](CC(C)C)C(=O)N[C@@H](CC2CCC(C3CCCCC3)CC2)C(=O)N[C@H](/C=C/S(C)(=O)=O)Cc2ccc(CN)cc2)s1 (some centres unmarked),PSMB6,competitive ABPP,Raji cell lysate,,IC50,> 10 µM
O=c1ccn([C@@H]2O[C@H](COP(=O)(O)OP(=O)(O)OP(=O)(O)O)[C@@H](O)[C@H]2O)c(=O)[nH]1,"dGTP triphosphohydrolase (Leeuwenhoekiella blandensis, UniProt A3XHN1)","dGTPase activity, inhibitor, enzyme-coupled",,together with: 1 mM dGTP,IC50,~3800 µM
CC(C)C[C@H](NC(=O)[C@H](CC(C)C)NC(=O)[C@H](Cc1ccccc1)NC(=O)CN=[N+]=[N-])C(=O)N[C@H](/C=C/S(C)(=O)=O)Cc1ccc(CN)cc1,PSMB6,competitive ABPP,Raji cell lysate,,IC50,> 10 µM
